Results pooled from the literature.
Each line is one published result; not all experiments were run side by side. Values joined by “and” are separate records of one study, mostly repeats; a detail may differ. ± gives the spread as reported.

`COc1ccccc1-c1n[nH]c2nc(NC3CCN(C(=O)Cc4ccc(F)cc4F)CC3)ncc12` gave a relative abundance of 1.1 (bead binding, competition bead pull-down, item: LINJ.30.0120; Leishmania donovani axenic amastigote extract; 10 µM; reference: vehicle).
The maximum fusion of `CCCCCCCCCCCC1CC(=O)NC(CC(N)=O)C(=O)NC(Cc2ccc(O)cc2)C(=O)NC(CC(N)=O)C(=O)NC(CCC(N)=O)C(=O)N2CCCC2C(=O)NC(CC(N)=O)C(=O)NC(CO)C(=O)N1` (stereo not drawn) is reported as 71 ± 7% (calcein leakage; DOPC/CHOL liposomes; concentration not given, together with: 20 wt% PEG-8000).
For `Cc1ccc(C2=CC(C)(C)Oc3ccc(-c4ccc(-c5ccc(C(=O)O)cc5)[nH]4)cc32)cc1`, the testis weight was 0.0908 g and 0.0995 g and 0.1 g and 0.0939 g and 0.105 g (CD1 mouse, male; 20 mg/kg, 4 weeks after treatment, dosed for 2 weeks).
`Cc1ccc(S(=O)(=O)N2CC2C(=O)N(C)C)cc1` (stereo not drawn) gave a tumour volume of 527 mm3 (mouse, Lewis lung carcinoma; intraperitoneal, 170 mg/kg, 16 doses, day 10).
`CCN(Cc1ccccc1)C(=O)CCc1nc(CN2CCN(C(=O)Cc3ccc(OC)c(OC)c3)CC2)no1` has a foot slips of 2.44 ± 0.36 (beam walking test; mouse CCI model; 1 mg/kg, unit not given; lower is better).
`COc1ccccc1-c1n[nH]c2nc(N[C@H]3CC[C@H](NS(=O)(=O)CC(C)C)CC3)ncc12` has a relative abundance of 1.14 (bead binding, competition bead pull-down, item: LMJF.34.3670; Leishmania donovani extract; 10 µM; reference: vehicle).
`O=C(O)c1ccc(-c2nc(-c3ccccc3Cl)c3sccn23)cc1` gave a platelet recovery of 55.2% and 69.1% and 79.4% and 50.3% (C57BL/6 mice, 5-fluorouracil treated; oral, 100 mg/kg daily, day 4).
For `CC(C)C[C@@H]1NC(=O)[C@@H](Cc2c[nH]c3ccccc23)NC(=O)[C@H](CCCNC(=N)N)NC(=O)[C@@H](CCC(=O)O)NC(=O)[C@H](CCC(N)=O)NC(=O)[C@@H](CCC(=O)O)NC(=O)[C@H](CCCNC(=N)N)NC(=O)[C@@H](Cc2c[nH]c3ccccc23)NC1=O`, the cytokine level was 1200 ± 390 pg/g tissue (Luminex, item: Eotaxin; LDLr-/- mice, Western diet, liver; dose not given, 4 weeks).
With `CC(C)[C@@H]1NC(=O)[C@@H]2CCCN2C(=O)[C@@H](C(C)C)NC(=O)[C@H]2CCCN2C(=O)[C@H](C(C)C)NC(=O)[C@@H]2CCCN2C(=O)[C@@H](C(C)C)NC(=O)[C@H]2CCCN2C(=O)[C@H](C(C)C)NC(=O)[C@@H]2CCCN2C(=O)[C@@H](C(C)C)NC(=O)[C@H]2CCCN2C1=O` the transference number was 0.87 (sheep lipid bilayer; 10 µM, pH 7.4, 23 °C, together with: Rb cation).

A few entries again:
`COc1ccccc1-c1n[nH]c2nc(NC3CCN(C(=O)Cc4ccc(F)cc4F)CC3)ncc12` gave a relative abundance of 1.1 (bead binding, competition bead pull-down, item: LINJ.30.0120; Leishmania donovani axenic amastigote extract; 10 µM; reference: vehicle).
